# Experimental data pooled from the literature.
# A part holds a random share of what one study measured.

# Block 1 — technique: protein-binding microarray; molecule type: double-stranded DNA, one strand shown; medium: in vitro; concentration: 2200 nM top; setting: 60-bp whole probe; added: salmon DNA 0.4 mg/ml; reference: random background probes; reading: higher = stronger binding; all sequences stand within: GCCTAGCAC … GTCTTGATTCGCTTGACGCTGCTG
# Target: Interferon regulatory factor 7, full length, phosphomimetic (IRF7, Homo sapiens, UniProt Q92985, residues 1-503, S471D/S472D/S475D/S476D/S477D/S483D/S484D/S487D)
# Construct (chain): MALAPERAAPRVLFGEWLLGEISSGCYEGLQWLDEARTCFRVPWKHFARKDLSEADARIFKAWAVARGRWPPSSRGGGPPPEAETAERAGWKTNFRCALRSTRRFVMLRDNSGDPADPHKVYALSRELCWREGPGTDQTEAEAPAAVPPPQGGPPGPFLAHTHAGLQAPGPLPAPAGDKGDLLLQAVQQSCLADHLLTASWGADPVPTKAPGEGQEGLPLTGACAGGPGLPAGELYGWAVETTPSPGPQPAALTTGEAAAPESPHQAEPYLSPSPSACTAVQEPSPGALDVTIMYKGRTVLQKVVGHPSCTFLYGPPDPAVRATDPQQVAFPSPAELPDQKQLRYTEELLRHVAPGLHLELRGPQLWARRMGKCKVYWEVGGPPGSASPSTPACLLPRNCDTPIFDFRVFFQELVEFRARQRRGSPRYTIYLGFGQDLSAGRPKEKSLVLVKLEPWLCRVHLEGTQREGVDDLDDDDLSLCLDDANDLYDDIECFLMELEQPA
Strand,fitted relative affinity [z-score]
TTGTGTTTGTCCCTATTTAAGTGCTAG,2.27
TTAGGACTGGACTTTCAGTTAGTGCTA,0.34
TTAGGACTGGGGTTTCAGTTAGTGCTA,-0.0364
CCAAGTCTTGTTTTACAATTGTGCTAG,1.26
TTAGATATCAGACTTGATTAGTGCTAG,-0.44
GACGGACTGGGAGTGGGGACGTGCTAG,-0.724
TTAGGACTCGGGTATCGGTTAGTGCTA,0.508
AGCAGAAAGTGAAATACCCTCGTGCTA,-0.42
AATGACTCTATGAAGTAGTTGTGCTAG,-0.156
TTAGGTTTCGGTTCCGCTTAGTGCTAG,11.1
TCAGTCATCCATCTGAAACTGTGCTAG,0.729
TCATTTTTAGCTTGCAAACTGTGCTAG,1.13
ACAAGTTTCTCCTTTCCAAAGTGCTAG,3.58
ACTAGCTTCCATTTTCTGAAGTGCTAG,2.03
TTAGGTTTCCCACTGCTTTAGTGCTAG,1.54
GACGGTTCCGGTTTCGGCACGTGCTAG,4.41

# Block 2 — technique: competition protein-binding microarray; molecule type: double-stranded DNA, one strand shown; medium: in vitro; concentration: 2 µM; added: Pho4 competitor, 0.05 µM; reading: higher = stronger binding; all sequences stand within: … GTCTTGATTCGCTTGACGCTGCTG
# Target: Centromere-binding protein 1, full length, His-tagged (CBF1, Saccharomyces cerevisiae, UniProt P17106, residues 1-351)
# Chain of UniProt P17106 (whole entry, looked up): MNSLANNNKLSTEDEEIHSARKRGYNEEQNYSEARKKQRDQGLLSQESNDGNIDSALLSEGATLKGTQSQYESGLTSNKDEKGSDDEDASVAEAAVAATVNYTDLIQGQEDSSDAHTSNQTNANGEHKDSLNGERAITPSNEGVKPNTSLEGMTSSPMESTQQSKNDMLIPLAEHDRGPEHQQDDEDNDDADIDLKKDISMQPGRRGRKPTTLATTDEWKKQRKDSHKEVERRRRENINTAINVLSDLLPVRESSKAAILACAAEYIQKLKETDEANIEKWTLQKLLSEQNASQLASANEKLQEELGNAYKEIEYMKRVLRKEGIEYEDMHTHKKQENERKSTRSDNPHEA
# Setting: whole 60-bp probe, lowest competitor level
Strand,fluorescence intensity [a.u.]
CTAGATGATAACCGACACGGGTTGGAAGACGGAAAT,79.7
CACATTATCAAACGTCACCTGCGTATTATCAACCGG,237
AAGTCGTTAGGGCCAATCGTGGGACGTATGCTATTG,65.3
ATAACCATAGGAAAGCACGTGATGGTGGAAGGACAG,3720
CGTCCTAGTGATTTTCACGTGATGTCCATGAGGAAG,3330
AAATTACTAAGTTGCGAAGTGGGTGACGCCGTATGA,68.3
CAACGATATCTTTATCAGGTGATTCTTACGCGCCAG,888
ATGAAATAACATCCACACGTGTAAGAATATATAATT,1170
CCTTCACTATTTTAACATGTGGAATTCTTGAAAGAA,122
ATTCAAGCCGGTGAACATGTGGAGGTTAACGGTTCC,97.1
CATACCCAACCTTGCCCAGTGGGTGAAGATATTTGT,64.2
GTCGGTTTCATCTTCTCCGTGATGGCTTTGCATCTA,78.6
TCGAGCTGACACTATCACATGCGATTGCGCAATCTT,164
TACATTTCTTCCCCTCTCGTGATGGCTAGATAATAG,187
GTACTGGAATTGTATGCCAAACTTTGCCGGGAAAAC,69.7
TTGTGGGAGTGATTGTGCGTGTATATGTGTGTTGGC,82.1
TTCATGGTTCTTTCACACGTGAGCCTTCCTCGGAGG,1050
TGAAGGATTTGTCCACACGTGGAATCAACATATCTG,465
TTTCTGGTGTCTATGAAGGTGTCTCAACAATCGAAC,79.3

# Block 3 — technique: RNA Bind-n-Seq; molecule type: RNA; medium: in vitro; concentration: 365 nM; reference: no-protein control; reading: higher = stronger binding
# Target: RNA binding protein fox-1 homolog 2, RRM domain, GST-SBP tag (RBFOX2, Homo sapiens, UniProt O43251-10, residues 100-194)
# Setting: natural RNA segment, single round, ends assumed
# All sequences stand within: GGGAGUUCUACAGUCCGACGAUC … UGGAAUUCUCGGGUGCCAA
# Construct (chain): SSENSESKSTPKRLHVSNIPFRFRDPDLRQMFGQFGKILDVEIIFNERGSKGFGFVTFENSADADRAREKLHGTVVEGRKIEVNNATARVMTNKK
Strand,RBNS enrichment (R)
CCCUCCAUACCUCUAGUUGUGUCUGAUGCUCCGUGCUGUUCGGGAAUUGUUUUAUGUACACUUGUCAGGCAGAAAAGGUAGUGACCGGCCCGGCGUGGGCACACAGACAG,0.507
AUCUUUGUUUCCCUCACACUUAGAGCCACUAAGUCUGCAGUUCUUUUUGAAUGUGAAACACAUCUGUGCUCCUCUUGUCUAUUUUUUCUCUUCAUGUUUUAACAAAAAAG,0.563
GAGACUGGUUCUCCUGACCCCCACCCGAGAGCGAGAGCGCCAAGUGCAGGGCCUUGUGUUGUGUGGUUUUACUUGGGCUGGGGGUGGUUCUUGCGGUUUCUUCCAUUGCU,1.61
UUCCCUUGUCGAUGCUGAUUCCUGGAGUCAGUUGGUUAUGAGUAGUAUAAGGGAUUCCCACUACAAAUGCAGUGUUCCCAUCUCAAAGCAAAACUGUAGUUCCCAAAAGA,0.319
AAAGGACUUGGCUUCCCUCGGAGUUUUACUGAUUUAUUUUUUUCUCUUUGCAUUGUGUACAUUAUCAUUGCUACAUCAGUUGUUACAGUGUUGAAAGGCUACCAGUUAUA,1.27
UGAAAGCCUGAACCUCCAUUUUUCUUCUUGGCUCCAGUUUUGCUGGUCCUCUGGAGAACUCUUCGUGAGCACUGGUGCCGUGACCCACUUGGGAUCUCUGCUGUGCCCUU,0.227
UUCCCCAGAAGUCAUUUUCAGCCUUAAUUCUCAUCAUGUAUAAAUUAACAUAAAUCAUGCAUGUCUGUUUACUUUAGUGACGUUCCACAGAAUAAAAGGAAACAAGUUUG,1.08
CAAGAACAGAGCAACAGCAACGGAACGAUGCUUAGAAGCAAAGGAAAGGUCACUGAUGAGUCCGCAAGAGGUCUCUUUCCCACUUUUGACUUUCCUGUUGAAGAGAUUAC,0.424

# Block 4 — technique: universal PBM; molecule type: double-stranded DNA, one strand shown; medium: in vitro; concentration: not given; reading: higher = stronger binding
# Target: Sal-like protein 4, full length isoform B (SALL4, Homo sapiens, UniProt Q9UJQ4-2, residues 1-616)
# Setting: 8-mer, flanks averaged, mean of replicates
# Construct (chain): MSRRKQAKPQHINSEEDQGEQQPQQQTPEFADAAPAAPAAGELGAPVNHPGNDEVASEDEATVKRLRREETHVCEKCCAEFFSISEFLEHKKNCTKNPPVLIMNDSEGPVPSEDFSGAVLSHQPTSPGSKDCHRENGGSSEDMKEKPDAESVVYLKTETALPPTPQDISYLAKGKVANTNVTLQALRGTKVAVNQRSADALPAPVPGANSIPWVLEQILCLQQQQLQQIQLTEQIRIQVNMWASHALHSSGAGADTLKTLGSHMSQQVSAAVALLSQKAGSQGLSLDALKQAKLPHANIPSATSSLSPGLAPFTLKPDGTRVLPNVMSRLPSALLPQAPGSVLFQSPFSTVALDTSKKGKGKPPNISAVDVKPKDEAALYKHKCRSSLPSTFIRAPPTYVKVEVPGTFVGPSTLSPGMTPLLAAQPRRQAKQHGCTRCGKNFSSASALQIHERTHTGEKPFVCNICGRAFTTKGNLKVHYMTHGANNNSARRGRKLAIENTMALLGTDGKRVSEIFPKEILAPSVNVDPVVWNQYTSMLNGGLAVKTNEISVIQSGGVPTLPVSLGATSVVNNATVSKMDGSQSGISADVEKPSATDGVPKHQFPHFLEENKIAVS
Strand,E-score
CTAGCAAA,0.148
AATGACGC,-0.00128
CTCTAGCA,4e-05
ACCTAGTA,0.0565
GGATCCAA,0.0163
CATTGAAG,0.0496
GCTAACCC,-0.275
CAGAAGAC,0.00228
GAAGTCTC,-0.133
GCCGCCGC,-0.387
ACAACAGC,-0.0242
GGAACCAA,-0.18
AGTGTCGA,-0.0202
CATTTCAA,0.323
CAATACCG,-0.0804
AGAAGTAT,0.226
CCGTTGTA,0.0328
AATTAGCC,0.0132
